# Measured values collected from several papers.
# Compare with care: the assays were run in different laboratories. Several values in a cell are separate wells, animals, samples, runs or records. ± gives the spread as reported.
# uncharacterized protein: uncharacterized protein (Anopheles coluzzii, UniProt A0A6E8VQK1)
# Chain of UniProt P68402 (whole entry, looked up): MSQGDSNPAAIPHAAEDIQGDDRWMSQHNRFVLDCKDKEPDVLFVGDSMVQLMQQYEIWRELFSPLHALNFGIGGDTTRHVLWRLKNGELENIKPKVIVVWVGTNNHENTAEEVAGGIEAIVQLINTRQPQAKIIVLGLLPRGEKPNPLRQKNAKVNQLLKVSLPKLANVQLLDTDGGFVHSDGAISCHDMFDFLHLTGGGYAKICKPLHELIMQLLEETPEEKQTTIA
# Chain of UniProt P33981 (whole entry, looked up): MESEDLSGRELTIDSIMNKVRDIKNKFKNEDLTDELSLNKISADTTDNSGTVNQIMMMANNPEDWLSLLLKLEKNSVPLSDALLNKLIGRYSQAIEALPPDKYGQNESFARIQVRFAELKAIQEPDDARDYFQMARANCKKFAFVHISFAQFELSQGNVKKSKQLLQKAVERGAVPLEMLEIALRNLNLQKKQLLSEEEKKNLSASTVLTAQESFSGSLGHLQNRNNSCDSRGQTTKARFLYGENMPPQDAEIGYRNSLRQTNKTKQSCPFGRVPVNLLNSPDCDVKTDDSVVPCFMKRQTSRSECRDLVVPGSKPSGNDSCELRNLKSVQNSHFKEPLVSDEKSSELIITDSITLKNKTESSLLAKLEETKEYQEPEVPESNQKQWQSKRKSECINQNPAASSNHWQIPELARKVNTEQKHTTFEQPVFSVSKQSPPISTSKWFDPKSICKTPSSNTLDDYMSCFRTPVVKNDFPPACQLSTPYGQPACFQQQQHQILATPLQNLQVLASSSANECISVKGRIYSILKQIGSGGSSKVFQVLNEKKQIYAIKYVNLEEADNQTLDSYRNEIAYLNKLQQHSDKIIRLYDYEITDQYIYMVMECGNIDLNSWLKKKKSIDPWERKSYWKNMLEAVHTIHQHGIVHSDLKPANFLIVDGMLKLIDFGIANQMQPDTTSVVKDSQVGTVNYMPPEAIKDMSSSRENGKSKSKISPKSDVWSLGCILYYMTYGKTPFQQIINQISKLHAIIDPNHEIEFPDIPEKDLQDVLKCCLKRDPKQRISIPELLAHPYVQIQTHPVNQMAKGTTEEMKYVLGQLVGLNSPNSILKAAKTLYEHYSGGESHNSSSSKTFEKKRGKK
# Chain of UniProt P19643 (whole entry, looked up): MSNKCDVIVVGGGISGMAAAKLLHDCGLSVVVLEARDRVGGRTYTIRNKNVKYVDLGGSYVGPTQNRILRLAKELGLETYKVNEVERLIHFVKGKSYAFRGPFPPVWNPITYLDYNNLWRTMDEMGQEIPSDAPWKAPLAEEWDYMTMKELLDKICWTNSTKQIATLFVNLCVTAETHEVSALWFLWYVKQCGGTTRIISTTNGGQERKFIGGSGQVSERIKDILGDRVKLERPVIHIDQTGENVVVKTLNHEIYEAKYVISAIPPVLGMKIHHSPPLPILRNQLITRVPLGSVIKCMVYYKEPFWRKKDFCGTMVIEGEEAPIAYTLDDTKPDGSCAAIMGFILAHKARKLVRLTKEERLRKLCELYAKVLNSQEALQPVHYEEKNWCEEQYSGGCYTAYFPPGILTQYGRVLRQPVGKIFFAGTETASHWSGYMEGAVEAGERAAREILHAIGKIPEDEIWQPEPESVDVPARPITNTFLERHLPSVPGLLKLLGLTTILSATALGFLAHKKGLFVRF
# Chain of UniProt P43115 (whole entry, looked up): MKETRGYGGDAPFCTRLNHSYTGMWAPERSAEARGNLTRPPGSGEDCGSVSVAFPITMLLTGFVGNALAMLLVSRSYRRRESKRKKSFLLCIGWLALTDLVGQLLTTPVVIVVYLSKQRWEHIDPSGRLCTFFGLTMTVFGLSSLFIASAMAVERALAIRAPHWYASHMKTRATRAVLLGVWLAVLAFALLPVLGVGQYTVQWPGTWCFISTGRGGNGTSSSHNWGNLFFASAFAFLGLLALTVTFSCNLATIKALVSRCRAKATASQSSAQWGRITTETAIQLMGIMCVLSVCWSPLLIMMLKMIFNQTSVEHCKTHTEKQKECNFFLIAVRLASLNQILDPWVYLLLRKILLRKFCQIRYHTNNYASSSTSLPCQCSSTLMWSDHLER
# Chain of UniProt P51170 (whole entry, looked up): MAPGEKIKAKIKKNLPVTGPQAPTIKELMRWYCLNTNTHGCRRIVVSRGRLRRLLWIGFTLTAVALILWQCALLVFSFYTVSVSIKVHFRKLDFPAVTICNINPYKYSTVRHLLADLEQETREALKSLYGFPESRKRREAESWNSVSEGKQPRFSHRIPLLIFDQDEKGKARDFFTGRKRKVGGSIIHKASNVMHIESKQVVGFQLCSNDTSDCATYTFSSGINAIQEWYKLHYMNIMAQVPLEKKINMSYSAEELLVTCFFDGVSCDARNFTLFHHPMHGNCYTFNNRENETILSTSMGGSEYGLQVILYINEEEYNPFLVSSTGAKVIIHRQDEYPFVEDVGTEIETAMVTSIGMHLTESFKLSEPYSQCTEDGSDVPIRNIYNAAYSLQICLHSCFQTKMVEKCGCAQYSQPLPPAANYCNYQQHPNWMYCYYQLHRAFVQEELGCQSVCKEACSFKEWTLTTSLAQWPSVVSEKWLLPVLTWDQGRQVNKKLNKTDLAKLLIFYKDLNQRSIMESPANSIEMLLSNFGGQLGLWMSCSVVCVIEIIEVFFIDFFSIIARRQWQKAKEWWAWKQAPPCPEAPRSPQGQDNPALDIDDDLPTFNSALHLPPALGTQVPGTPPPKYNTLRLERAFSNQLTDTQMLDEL
# Chain of UniProt P22455 (whole entry, looked up): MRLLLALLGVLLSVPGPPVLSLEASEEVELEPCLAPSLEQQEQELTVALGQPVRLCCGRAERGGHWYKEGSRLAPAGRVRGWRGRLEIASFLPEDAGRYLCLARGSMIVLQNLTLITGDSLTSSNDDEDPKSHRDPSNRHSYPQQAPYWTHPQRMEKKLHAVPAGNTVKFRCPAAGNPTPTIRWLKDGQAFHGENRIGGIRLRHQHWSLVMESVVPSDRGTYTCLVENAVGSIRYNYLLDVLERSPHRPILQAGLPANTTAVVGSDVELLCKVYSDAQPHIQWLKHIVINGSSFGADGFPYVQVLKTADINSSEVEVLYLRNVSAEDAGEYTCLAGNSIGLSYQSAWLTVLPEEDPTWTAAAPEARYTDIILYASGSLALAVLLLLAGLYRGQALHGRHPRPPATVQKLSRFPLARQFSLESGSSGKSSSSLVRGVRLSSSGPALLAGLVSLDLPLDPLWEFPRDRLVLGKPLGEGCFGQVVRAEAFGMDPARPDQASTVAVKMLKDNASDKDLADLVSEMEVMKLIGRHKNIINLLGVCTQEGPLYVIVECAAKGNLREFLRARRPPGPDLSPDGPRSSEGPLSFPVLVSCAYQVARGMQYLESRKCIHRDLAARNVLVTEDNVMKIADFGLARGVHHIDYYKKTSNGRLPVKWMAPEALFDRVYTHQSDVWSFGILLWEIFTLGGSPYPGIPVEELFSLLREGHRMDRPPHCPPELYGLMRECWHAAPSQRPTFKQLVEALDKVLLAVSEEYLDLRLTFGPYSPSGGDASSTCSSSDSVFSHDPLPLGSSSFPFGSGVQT
# Chain of UniProt P19099 (whole entry, looked up): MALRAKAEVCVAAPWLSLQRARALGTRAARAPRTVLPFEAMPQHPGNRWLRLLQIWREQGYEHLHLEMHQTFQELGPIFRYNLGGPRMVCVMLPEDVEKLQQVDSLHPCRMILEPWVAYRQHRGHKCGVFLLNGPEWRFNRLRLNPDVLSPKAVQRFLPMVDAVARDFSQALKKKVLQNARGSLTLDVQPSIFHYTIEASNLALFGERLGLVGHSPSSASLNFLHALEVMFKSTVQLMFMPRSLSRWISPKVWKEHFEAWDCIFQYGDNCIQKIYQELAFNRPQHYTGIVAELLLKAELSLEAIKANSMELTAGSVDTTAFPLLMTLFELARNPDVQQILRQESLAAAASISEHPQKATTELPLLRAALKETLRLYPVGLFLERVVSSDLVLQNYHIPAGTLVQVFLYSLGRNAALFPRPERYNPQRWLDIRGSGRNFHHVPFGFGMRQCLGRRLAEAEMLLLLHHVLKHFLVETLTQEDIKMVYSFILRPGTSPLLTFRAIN
# Chain of UniProt P32238 (whole entry, looked up): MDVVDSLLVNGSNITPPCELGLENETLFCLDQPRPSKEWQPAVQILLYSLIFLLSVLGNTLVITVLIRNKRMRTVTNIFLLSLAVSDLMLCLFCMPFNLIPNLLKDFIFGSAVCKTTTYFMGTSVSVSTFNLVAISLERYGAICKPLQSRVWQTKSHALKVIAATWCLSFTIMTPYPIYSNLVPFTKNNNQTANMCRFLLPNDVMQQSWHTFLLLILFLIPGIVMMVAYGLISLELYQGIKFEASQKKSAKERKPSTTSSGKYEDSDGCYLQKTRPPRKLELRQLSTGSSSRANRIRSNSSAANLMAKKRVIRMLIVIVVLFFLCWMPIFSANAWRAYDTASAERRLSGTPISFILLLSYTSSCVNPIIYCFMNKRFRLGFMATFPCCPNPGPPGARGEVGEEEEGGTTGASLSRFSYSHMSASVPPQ
SMILES,target,assay,system,conditions,scale,endpoint,value
CCCCC/C=C\C/C=C\C/C=C\C/C=C\CCCC(=O)NCCO,"Trpv1 (Mus musculus, UniProt Q704Y3, S513A)","ion current, agonist, whole-cell patch clamp",,,,Hill coefficient,2.8 ± 0.61
Cc1cc(-c2nsc(=O)o2)c(S(C)(=O)=O)s1,"PSMB7 (Homo sapiens, UniProt Q99436)",irreversible inhibitor,human PA28-activated proteasome,,,kobs/[I],0.47 M⁻¹ s⁻¹
C[C@]12CC[C@H]3[C@@H](CCC4=CC(=O)CC[C@@]43C)[C@@H]1CC[C@@H]2C(=O)CO,"CYP11B2 (Homo sapiens, UniProt P19099)",substrate,,steady state,,aldosterone formation rate,6.3 pmol/min/pmol P450
CCCCCCCCc1ccc(C(=O)Nc2ccccc2C(=O)OCC)cc1,"Serine/threonine-protein kinase PLK1, polo-box domain (PLK1, Homo sapiens, UniProt P53350)",inhibitor,,concentration not given,,activity,inactive
C[C@H]1CN(c2n[nH]c3nc(N[C@H]4CC[C@H](NS(=O)(=O)CCC(F)(F)F)CC4)ncc23)CCO1,"Tight junction protein 1 (TJP1, Homo sapiens, UniProt Q07157)","Kinobeads competition, item: TJP1",,"0.8 µM, unit not given",baseline: vehicle,remaining binding,0.95
O=C(O)CCC(=O)C(=O)O,"HIF1AN (Homo sapiens, UniProt Q9NWT6, Q147A)",cosubstrate,,"pH 7.00, 37.0 °C, mutant Q147A, added: CTAD peptide 100 µM, cosubstrate 217 µM",,apparent kcat,0.317 ± 0.15 s⁻¹
O=C(c1ccc(Cl)cc1)N1CCN2C(=O)N(OC(=O)N3CCOc4ccccc43)C(=O)C2C1 (stereo not shown),"Platelet-activating factor acetylhydrolase IB subunit alpha2 (Homo sapiens, UniProt P68402)",MS-based ABPP,SW-620 conditioned medium,"10 µM, 1 h, 37 °C","baseline: compound over DMSO, lower = more inhibition",peptide ratio,1.06 and 0.91 and 0.89 and 0.94
O=C1c2ccccc2C(=O)C1C(=O)C(c1ccccc1)c1ccc(Cl)cc1 (stereo not shown),"Nuclear receptor subfamily 1 group I member 3 (Homo sapiens, UniProt Q14994)",,,concentration not given,,activity,inactive
Nc1ncnc2c1ncn2[C@@H]1O[C@H](COP(=O)(O)OP(=O)(O)OP(=O)(O)O)[C@@H](O)[C@H]1O,"matB (Rhodopseudomonas palustris, UniProt Q6ND88, C106A/K488A/Q457C/R286C)",binding,,"pH 7.5, 50 mM Tris-HCl, 100 mM NaCl, gel-filtered protein",,fluorescence ratio F+/F-,2.9
COc1cc(N)c(Cl)cc1C(=O)NC1CN2CCC1CC2 (stereo not shown),"HCAR2 (Homo sapiens, UniProt Q8TDS4)","β-arrestin recruitment, TANGO luminescence, item: GPR109A",,concentration not given,baseline: basal luminescence,log2 fold change,-0.014
C[C@@H](O)[C@H](NC(=O)c1ccc(-c2ccccc2)cc1)C(=O)NO,"UDP-3-O-acyl-N-acetylglucosamine deacetylase (Pseudomonas aeruginosa, UniProt P47205, C40S)",isothermal titration calorimetry,,"concentration not given, 298 K, untagged protein, averaged",,entropy change (ΔS),0.0145 kcal/mol/K
COc1ccc(N2C(=O)N(c3c(C)cccc3Cl)Cc3cnc(Nc4ccc(C5CCN(C)CC5)cc4OC)nc32)nc1,"TTK (Homo sapiens, UniProt P33981)",kinase activity,,0.5 µM,,inhibition,19%
CC(C)(C)c1ccc(OP(=O)(Oc2ccc(C(C)(C)C)cc2)Oc2ccc(C(C)(C)C)cc2)cc1,"Acylamino-acid-releasing enzyme (Apeh, Mus musculus, UniProt Q8R146)",,"mouse, blood",,,ED50,> 240 mg/kg
COC(=O)[C@@]1(O)C[C@H]2O[C@]1(C)n1c3ccccc3c3c4c(c5c6ccccc6n2c5c31)C(=O)NC4,"MAPK3 (Homo sapiens, UniProt P27361)",ADP-Glo,,"5.92 µM, added: substrate MBP",,remaining activity,112%
Cn1cc(C2=C(c3ccc(Cl)cc3Cl)C(=O)NC2=O)c2ccccc21,"blaNDM-1 (Klebsiella pneumoniae, UniProt C7C422)",inhibitor,,,,Hill coefficient,1.7
CN[C@@H]1C[C@H]2O[C@@](C)([C@@H]1OC)n1c3ccccc3c3c4c(c5c6ccccc6n2c5c31)C(=O)NC4,"SRC (Homo sapiens, UniProt P12931)","binder, NanoLuc thermal shift","permeabilized HeLa, Nluc fusion",,,ΔTm,-0.1 °C
O=C(Nc1cccnn1)N1CCC(=Cc2cccc(Oc3ccc(C(F)(F)F)cn3)c2)CC1,"LTB4R (Homo sapiens, UniProt Q15722)",radioligand binding,,"10 µM, added: [3H]LTB4",,inhibition of binding,19%
O=P(O)(O)OC[C@H]1C[C@](O)(CO)[C@@H](O)[C@H](O)[C@@H]1O,"2-epi-valiolone synthase (Actinosynnema mirum, UniProt C6WFL3)",phosphate release,,150 µM,,apparent Vmax,1.9 ± 0.3 µM/min
Nc1ncc(-c2nc(N3CCOCC3)nc(N3CCOCC3)n2)c(C(F)F)n1,"PIK3CA (Homo sapiens, UniProt P42336, E545A)",KINOMEscan,,10 µM,,remaining binding,0%
COc1cc(Nc2ncc(F)c(Nc3ccc4c(n3)NC(=O)C(C)(C)O4)n2)cc(OC)c1OC,"PDGFRA (Homo sapiens, UniProt P16234)",KINOMEscan,,10 µM,,inhibition,100%
O=C(/C=C\c1ccccc1)O[C@H]1[C@@H]2C=CO[C@@H](O[C@@H]3O[C@H](CO)[C@@H](O)[C@H](O)[C@H]3O)[C@@H]2[C@@]2(CO)O[C@@H]12,"Maob (Rattus norvegicus, UniProt P19643)",enzyme activity,PC-12,"100 µM, added: 6-OHDA 300 µM",baseline: 6-OHDA model cells,activity decrease,27%
CNC(=O)Oc1cccc2c1OC(C)(C)O2,uncharacterized protein,"enzyme activity, inhibitor",Sf9 cell homogenate,"0.004651 µM, 0.1667 h, added: α-naphthyl acetate substrate",baseline: no inhibitor,remaining activity,98.6%
C[N+](C)(C)C,"Chrnd/Chrna1/Chrne (Mus musculus, UniProt P02716+P04756+P20782, G173K/S470W)","ligand binding, agonist, single-channel kinetics",,chain K,baseline: wild type over mutant,affinity ratio,0.9
O=C(Nc1cnccc1Cl)N1CCN(Cc2ccc3c(c2)OC(F)(F)O3)CC1,"PTGER3 (Homo sapiens, UniProt P43115)","radioligand binding, inhibitor",,"10 µM, human, added: [3H]prostaglandin E2",,inhibition,-10%
NCCc1c[nH]c2ccc(O)cc12,AANAT1 Hippopotamus amphibius,"substrate, DTNB colorimetric",,added: acetyl-CoA,,Km,350 ± 110 µM
CC[C@H](C)[C@H](NC(=O)CNC(=O)[C@@H](N)CCCCN)C(=O)N[C@@H](CC(C)C)C(=O)N[C@@H](CCCCN)C(=O)N[C@@H](CCCNC(=N)N)C(=O)N[C@@H](CCC(=O)O)C(=O)N[C@@H](CCCCN)C(=O)N[C@@H](CCCNC(=N)N)C(=O)N[C@@H](CC(C)C)C(=O)N[C@@H](CCCNC(=N)N)C(=O)N[C@@H](CCCNC(=N)N)C(=O)N[C@@H](CCCCN)C(=O)N[C@@H](CC(N)=O)C(=O)N[C@H](C(=O)N[C@@H](Cc1c[nH]cn1)C(=O)N[C@@H](Cc1c[nH]c2ccccc12)C(=O)N1CCC[C@H]1C(=O)N[C@@H](CCC(=O)O)C(=O)N[C@@H](CCC(=O)O)C(=O)NCC(=O)N[C@@H](CCCCN)C(=O)N[C@@H](CC(C)C)C(=O)N[C@@H](CCCNC(=N)N)C(=O)N[C@@H](CCC(=O)O)C(=O)N[C@@H](Cc1ccccc1)C(=O)N[C@@H](Cc1ccccc1)C(=O)N[C@@H](Cc1ccccc1)C(=O)N[C@@H](Cc1ccccc1)C(=O)N[C@@H](CCC(=O)O)C(=O)N[C@@H](CC(C)C)C(=O)N[C@@H](CC(=O)O)C(=O)N[C@@H](CCC(=O)O)C(=O)N[C@@H](C)C(=O)N[C@@H](CCC(=O)O)C(=O)N[C@@H](CCCNC(=N)N)C(=O)N[C@H](C(=O)N[C@@H](CC(N)=O)C(=O)N[C@H](C(=O)O)C(C)C)C(C)C)C(C)C,"PPP1CA (Homo sapiens, UniProt P62136)","binding, isothermal titration calorimetry",,"concentration not given, 25 °C, PP1α residues 7-330",,entropy change ΔS,-57.3 ± 3.7 cal/mol/K
CC1(C)[C@H](C(=O)O[C@H](C#N)c2cccc(Oc3ccccc3)c2)[C@@H]1C=C(Br)Br,uncharacterized protein,"enzyme activity, inhibitor",Sf9 cell homogenate,"4.545 µM, 0.1667 h, added: α-naphthyl acetate substrate",baseline: no inhibitor,remaining activity,100%
O=C(O)COP(=O)(O)O,"TPI1 (Saccharomyces cerevisiae, UniProt P00942, S211G)","enzyme activity, competitive inhibitor, GPDH/NADH-coupled",,"pH 9.3, 25 °C, ionic strength 0.1 NaCl, added: glyceraldehyde 3-phosphate substrate",baseline: mutant over wild type,Ki ratio,3.7
C[C@@H](O)[C@H](NC(=O)[C@H](Cc1ccccc1)NC(=O)[C@H](Cc1ccccc1)NC(=O)[C@H](CC(=O)O)NC(=O)[C@H](CC(=O)O)NC(=O)[C@H](Cc1c[nH]c2ccccc12)NC(=O)[C@H](CO)NC(=O)[C@@H](N)CCCCN)C(=O)N[C@@H](CCCNC(=N)N)C(=O)O,"Epithelial sodium channel subunit gamma (Homo sapiens, UniProt P51170)","binding, bio-layer interferometry",,,,koff,0.166 s⁻¹
[2H]c1c([2H])c([C@]2([2H])CCCN2C(=O)C(C)(C)Oc2ccc3cn[nH]c3c2)c([2H])c([2H])c1C([2H])([2H])[2H],"FGFR4 (Homo sapiens, UniProt P22455)",KINOMEscan,,1 µM,baseline: DMSO control,remaining binding,73%
CC(CCn1ccc(-c2ccc(-c3cn(Cc4cccnc4)nn3)cc2)cc1=O)(C(=O)NO)S(C)(=O)=O (stereo not shown),"UDP-3-O-acyl-N-acetylglucosamine deacetylase (Pseudomonas aeruginosa, UniProt P47205)",fluorescence,,37 °C,,residence time,121 min and ~120 min
CN(C(=O)n1cnc(-c2ccc[n+]([O-])c2)c1)C1CCCCC1,"MAOA (Homo sapiens, UniProt P21397)","enzyme activity, inhibitor",,"50 µM, human, added: kynuramine substrate",,inhibition,3%
CN1CCN(c2cc(-c3ccncc3)c(-c3ccc4ccccc4c3)nn2)CC1,"CCKAR (Homo sapiens, UniProt P32238)","agonist, FLIPR",,12.5 µM,,activation,-0.6%
CCCCCCCCCCCCCCCC[N+](C)(C)C.[Br-],"Sodium channel protein type 4 alpha, BTX-activated (Oryctolagus cuniculus, UniProt G1SLL9)",,rabbit,,,mean closed time,167 ms and 159 ms

# A few entries again:
SMILES,target,assay,system,conditions,scale,endpoint,value
CC1(C)[C@H](C(=O)O[C@H](C#N)c2cccc(Oc3ccccc3)c2)[C@@H]1C=C(Br)Br,uncharacterized protein,"enzyme activity, inhibitor",Sf9 cell homogenate,"4.545 µM, 0.1667 h, added: α-naphthyl acetate substrate",baseline: no inhibitor,remaining activity,100%
O=C1c2ccccc2C(=O)C1C(=O)C(c1ccccc1)c1ccc(Cl)cc1 (stereo not shown),"Nuclear receptor subfamily 1 group I member 3 (Homo sapiens, UniProt Q14994)",,,concentration not given,,activity,inactive
Nc1ncnc2c1ncn2[C@@H]1O[C@H](COP(=O)(O)OP(=O)(O)OP(=O)(O)O)[C@@H](O)[C@H]1O,"matB (Rhodopseudomonas palustris, UniProt Q6ND88, C106A/K488A/Q457C/R286C)",binding,,"pH 7.5, 50 mM Tris-HCl, 100 mM NaCl, gel-filtered protein",,fluorescence ratio F+/F-,2.9
CCCCCCCCCCCCCCCC[N+](C)(C)C.[Br-],"Sodium channel protein type 4 alpha, BTX-activated (Oryctolagus cuniculus, UniProt G1SLL9)",,rabbit,,,mean closed time,167 ms and 159 ms
Cn1cc(C2=C(c3ccc(Cl)cc3Cl)C(=O)NC2=O)c2ccccc21,"blaNDM-1 (Klebsiella pneumoniae, UniProt C7C422)",inhibitor,,,,Hill coefficient,1.7
